Measurements collected from several papers.
Parts stem from different laboratories: compare values within a part only. Positions count from the first letter of the parent shown.
UniProt Q9H0K1, sequence (whole entry, looked up): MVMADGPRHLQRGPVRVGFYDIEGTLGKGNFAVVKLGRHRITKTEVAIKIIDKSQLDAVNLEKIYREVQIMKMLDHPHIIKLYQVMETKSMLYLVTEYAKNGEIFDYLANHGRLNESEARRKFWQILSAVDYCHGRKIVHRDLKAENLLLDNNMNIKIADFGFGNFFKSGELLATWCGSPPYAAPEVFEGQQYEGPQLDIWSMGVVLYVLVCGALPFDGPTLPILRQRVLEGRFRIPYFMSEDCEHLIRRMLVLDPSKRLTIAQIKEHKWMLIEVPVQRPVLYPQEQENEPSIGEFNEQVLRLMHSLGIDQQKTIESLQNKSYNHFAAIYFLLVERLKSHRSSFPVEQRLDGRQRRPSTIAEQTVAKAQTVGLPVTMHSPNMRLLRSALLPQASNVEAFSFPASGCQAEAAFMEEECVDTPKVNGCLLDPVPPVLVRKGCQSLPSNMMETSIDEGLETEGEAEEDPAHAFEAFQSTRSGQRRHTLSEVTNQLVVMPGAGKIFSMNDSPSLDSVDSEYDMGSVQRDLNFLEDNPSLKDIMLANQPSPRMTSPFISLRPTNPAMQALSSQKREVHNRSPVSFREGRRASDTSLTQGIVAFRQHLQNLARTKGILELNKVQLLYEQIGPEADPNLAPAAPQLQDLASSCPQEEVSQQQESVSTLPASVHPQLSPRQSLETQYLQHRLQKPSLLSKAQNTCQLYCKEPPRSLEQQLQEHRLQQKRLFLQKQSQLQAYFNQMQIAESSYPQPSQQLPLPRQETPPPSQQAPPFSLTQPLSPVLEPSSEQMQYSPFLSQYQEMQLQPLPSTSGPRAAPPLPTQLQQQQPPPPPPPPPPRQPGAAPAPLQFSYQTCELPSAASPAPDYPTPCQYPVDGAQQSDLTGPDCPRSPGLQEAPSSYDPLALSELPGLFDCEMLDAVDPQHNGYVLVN
UniProt P21728, sequence (whole entry, looked up): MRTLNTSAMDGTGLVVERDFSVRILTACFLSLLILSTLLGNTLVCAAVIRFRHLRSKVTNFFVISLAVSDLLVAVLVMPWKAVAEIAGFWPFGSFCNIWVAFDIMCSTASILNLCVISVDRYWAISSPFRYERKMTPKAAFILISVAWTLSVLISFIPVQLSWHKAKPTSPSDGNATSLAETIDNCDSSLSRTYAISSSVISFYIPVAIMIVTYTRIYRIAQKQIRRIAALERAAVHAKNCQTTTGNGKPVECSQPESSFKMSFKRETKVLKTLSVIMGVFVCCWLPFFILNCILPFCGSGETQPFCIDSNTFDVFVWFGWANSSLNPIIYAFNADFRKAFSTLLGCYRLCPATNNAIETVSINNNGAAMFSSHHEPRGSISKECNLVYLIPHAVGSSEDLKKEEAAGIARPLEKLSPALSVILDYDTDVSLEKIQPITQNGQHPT
UniProt P50406, sequence (whole entry, looked up): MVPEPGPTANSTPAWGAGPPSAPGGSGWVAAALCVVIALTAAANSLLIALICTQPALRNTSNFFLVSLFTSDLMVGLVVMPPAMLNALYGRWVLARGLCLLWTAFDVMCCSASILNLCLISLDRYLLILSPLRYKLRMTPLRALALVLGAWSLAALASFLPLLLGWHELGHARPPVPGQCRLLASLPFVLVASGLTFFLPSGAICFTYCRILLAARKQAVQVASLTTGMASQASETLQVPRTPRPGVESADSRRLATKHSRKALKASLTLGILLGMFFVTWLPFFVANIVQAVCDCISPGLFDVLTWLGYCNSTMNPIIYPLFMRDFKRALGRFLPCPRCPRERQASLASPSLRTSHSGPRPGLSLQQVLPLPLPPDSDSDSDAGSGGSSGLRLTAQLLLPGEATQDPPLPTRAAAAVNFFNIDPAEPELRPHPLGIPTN
UniProt P08912, sequence (whole entry, looked up): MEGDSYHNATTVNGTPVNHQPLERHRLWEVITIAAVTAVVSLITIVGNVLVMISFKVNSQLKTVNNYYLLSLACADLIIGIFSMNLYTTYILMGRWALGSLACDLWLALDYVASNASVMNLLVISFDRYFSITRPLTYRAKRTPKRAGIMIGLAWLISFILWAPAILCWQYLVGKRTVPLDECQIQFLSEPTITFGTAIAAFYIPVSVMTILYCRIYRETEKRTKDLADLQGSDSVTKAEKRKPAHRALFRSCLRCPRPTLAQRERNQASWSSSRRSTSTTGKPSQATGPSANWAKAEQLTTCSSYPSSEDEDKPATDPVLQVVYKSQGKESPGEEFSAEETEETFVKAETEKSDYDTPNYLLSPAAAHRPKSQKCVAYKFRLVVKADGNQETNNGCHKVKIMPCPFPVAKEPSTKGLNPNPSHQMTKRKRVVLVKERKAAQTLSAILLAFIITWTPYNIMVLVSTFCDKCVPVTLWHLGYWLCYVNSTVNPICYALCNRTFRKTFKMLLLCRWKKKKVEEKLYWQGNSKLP
UniProt P51812, sequence (whole entry, looked up): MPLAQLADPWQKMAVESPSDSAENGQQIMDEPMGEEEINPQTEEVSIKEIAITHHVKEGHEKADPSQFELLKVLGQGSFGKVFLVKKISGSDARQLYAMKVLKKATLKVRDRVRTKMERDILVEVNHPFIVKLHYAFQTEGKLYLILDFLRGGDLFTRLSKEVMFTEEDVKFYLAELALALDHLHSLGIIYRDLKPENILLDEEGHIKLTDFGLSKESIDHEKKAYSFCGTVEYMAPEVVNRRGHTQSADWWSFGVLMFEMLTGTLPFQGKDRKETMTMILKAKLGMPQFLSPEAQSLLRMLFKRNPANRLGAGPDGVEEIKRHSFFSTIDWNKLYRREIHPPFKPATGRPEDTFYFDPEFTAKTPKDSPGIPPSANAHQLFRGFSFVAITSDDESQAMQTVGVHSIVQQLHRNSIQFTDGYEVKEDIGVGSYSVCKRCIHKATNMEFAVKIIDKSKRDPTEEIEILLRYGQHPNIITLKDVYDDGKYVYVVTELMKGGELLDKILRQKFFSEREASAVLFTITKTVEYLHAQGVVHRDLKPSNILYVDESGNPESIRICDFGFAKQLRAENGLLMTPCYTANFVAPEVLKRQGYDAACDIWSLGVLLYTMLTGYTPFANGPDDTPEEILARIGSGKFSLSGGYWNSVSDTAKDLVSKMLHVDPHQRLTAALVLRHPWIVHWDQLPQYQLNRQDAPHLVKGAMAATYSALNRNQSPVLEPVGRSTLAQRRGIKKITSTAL
UniProt Q05513, sequence (whole entry, looked up): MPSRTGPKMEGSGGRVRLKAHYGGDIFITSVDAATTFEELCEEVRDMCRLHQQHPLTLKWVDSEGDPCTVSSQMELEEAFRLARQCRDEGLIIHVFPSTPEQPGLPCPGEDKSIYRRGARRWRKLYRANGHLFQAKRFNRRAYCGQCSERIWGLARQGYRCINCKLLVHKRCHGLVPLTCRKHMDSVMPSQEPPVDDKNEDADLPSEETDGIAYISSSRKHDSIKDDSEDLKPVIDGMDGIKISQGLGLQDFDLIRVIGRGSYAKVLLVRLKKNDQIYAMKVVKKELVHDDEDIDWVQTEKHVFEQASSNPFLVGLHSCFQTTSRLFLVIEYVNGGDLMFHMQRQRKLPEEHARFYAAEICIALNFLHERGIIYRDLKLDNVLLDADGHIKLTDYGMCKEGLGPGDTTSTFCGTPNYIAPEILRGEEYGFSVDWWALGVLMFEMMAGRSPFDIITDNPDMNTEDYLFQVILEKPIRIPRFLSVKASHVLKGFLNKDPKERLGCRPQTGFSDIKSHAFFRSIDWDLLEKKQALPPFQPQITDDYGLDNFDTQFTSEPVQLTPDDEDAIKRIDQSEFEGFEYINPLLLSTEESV
UniProt P49760, sequence (whole entry, looked up): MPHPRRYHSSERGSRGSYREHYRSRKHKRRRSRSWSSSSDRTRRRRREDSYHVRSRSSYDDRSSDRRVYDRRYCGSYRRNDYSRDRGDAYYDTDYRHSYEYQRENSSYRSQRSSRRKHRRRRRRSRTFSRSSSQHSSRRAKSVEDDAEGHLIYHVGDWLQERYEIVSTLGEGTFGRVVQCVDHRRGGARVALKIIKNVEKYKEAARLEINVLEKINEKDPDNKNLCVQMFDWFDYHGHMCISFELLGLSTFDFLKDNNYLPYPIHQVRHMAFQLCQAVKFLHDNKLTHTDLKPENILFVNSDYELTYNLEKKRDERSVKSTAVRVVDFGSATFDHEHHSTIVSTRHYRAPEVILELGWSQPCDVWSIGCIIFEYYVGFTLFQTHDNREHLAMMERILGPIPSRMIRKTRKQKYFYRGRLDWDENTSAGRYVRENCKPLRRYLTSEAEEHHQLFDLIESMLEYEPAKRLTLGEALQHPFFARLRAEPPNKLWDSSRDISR
UniProt P21917, sequence (whole entry, looked up): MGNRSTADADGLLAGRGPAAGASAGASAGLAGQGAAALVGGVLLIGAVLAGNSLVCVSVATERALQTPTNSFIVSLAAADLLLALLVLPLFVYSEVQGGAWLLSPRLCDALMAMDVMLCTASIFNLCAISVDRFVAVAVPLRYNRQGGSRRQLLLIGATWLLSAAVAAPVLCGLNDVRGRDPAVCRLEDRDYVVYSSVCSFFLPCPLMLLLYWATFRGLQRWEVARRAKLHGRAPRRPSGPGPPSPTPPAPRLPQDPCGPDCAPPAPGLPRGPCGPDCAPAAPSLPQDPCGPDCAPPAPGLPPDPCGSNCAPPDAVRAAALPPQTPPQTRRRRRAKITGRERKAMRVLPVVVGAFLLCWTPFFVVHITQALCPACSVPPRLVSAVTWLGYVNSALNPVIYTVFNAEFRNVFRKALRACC
UniProt P48730, sequence (whole entry, looked up): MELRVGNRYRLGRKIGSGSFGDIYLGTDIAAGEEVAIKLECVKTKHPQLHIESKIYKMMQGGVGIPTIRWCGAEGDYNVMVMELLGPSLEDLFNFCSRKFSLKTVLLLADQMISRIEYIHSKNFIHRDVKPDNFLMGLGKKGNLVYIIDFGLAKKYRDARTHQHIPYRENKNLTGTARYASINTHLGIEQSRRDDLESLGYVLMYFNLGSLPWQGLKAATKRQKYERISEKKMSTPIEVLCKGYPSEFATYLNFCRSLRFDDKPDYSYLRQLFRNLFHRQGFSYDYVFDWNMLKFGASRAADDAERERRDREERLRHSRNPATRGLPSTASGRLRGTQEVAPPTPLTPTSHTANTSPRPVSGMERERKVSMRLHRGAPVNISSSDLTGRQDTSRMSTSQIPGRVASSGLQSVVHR

Study 1
Structure (SMILES): Cc1cc(NC(=O)c2cccc(S(F)(F)(F)(F)F)c2)cc(-n2ccn3nc(-c4cccnc4)cc23)c1
Read-out: ligand displacement
Method: radioligand
Tested at: 10 µM
| target | inhibition [%] |
| --- | --- |
| D(1A) dopamine receptor (DRD1, Homo sapiens, UniProt P21728) | 1.92 |
| 5-hydroxytryptamine receptor 5A (HTR5A, Homo sapiens, UniProt P47898) | -8.05 |
| 5-hydroxytryptamine receptor 6 (HTR6, Homo sapiens, UniProt P50406) | -8.52 |
| D(4) dopamine receptor (DRD4, Homo sapiens, UniProt P21917) | -3.84 |
| 5-hydroxytryptamine receptor 3A (HTR3A, Homo sapiens, UniProt P46098) | -1.37 |
| Histamine H2 receptor (HRH2, Homo sapiens, UniProt P25021) | 1.31 |
| Alpha-1B adrenergic receptor (ADRA1B, Homo sapiens, UniProt P35368) | -2.4 |
| Muscarinic acetylcholine receptor M2 (CHRM2, Homo sapiens, UniProt P08172) | -1.26 |
| Muscarinic acetylcholine receptor M5 (CHRM5, Homo sapiens, UniProt P08912) | -4.95 |

Study 2
Target: ABI1, truncated, D143A, DHFR fusion (Arabidopsis thaliana, UniProt P49597)
Method: DHFR PCA, dose-response
Medium: yeast
Setting: Hill fit, mean, not affinity
Together with: (+)-ABA, dose series
Direction: lower = more sensitive
Starting sequence: PYL1, truncated, DHFR fusion (Arabidopsis thaliana, UniProt Q8VZS8); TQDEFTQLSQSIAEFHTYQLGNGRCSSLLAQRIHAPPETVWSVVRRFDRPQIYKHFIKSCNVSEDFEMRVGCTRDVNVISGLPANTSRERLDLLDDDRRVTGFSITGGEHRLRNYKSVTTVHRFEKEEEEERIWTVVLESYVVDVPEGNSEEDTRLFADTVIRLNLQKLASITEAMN
| Change | ABA EC50 |
| --- | --- |
| G71M | 121 µM |
| N77F | 1.21 µM |
| H55Y | 1.93 µM |
| N114E | 125 µM |
| V143I | 185 µM |
| T1Q | 2.83 µM |
| T119M | 4.39 µM |
| R111P | 359 µM |

Study 3
Structure (SMILES): CCC(=O)Nc1ccc2ncnc(Nc3cccc(Br)c3)c2c1
Read-out: enzyme activity
Action: inhibitor
Tested at: 0.5 µM
Reference: control
| target | remaining activity [%] |
| --- | --- |
| Serine/threonine-protein kinase MARK1 (MARK1, Homo sapiens, UniProt Q9P0L2) | 98.5 |
| Tyrosine-protein kinase Yes (YES1, Homo sapiens, UniProt P07947) | 87 |
| Serine/threonine-protein kinase PAK 4 (PAK4, Homo sapiens, UniProt O96013) | 105 |
| Serine/threonine-protein kinase SIK2 (SIK2, Homo sapiens, UniProt Q9H0K1) | 98.7 |
| Dual specificity protein kinase CLK2 (CLK2, Homo sapiens, UniProt P49760) | 101 |
| Casein kinase I isoform delta (CSNK1D, Homo sapiens, UniProt P48730) | 96.9 |
| SRSF protein kinase 1 (SRPK1, Homo sapiens, UniProt Q96SB4) | 97 |
| Insulin-like growth factor 1 receptor (IGF1R, Homo sapiens, UniProt P08069) | 87.5 |
| Dual specificity tyrosine-phosphorylation-regulated kinase 1A (DYRK1A, Homo sapiens, UniProt Q13627) | 89.2 |
| Serine/threonine-protein kinase PAK 5 (PAK5, Homo sapiens, UniProt Q9P286) | 91.6 |
| Ribosomal protein S6 kinase alpha-3 (RPS6KA3, Homo sapiens, UniProt P51812) | 95 |
| Tyrosine-protein kinase Tec (TEC, Homo sapiens, UniProt P42680) | 103 |
| Protein kinase C zeta type (PRKCZ, Homo sapiens, UniProt Q05513) | 95.7 |
| Tyrosine-protein kinase JAK1 (JAK1, Homo sapiens, UniProt P23458) | 96.6 |

Further values, each from its own experiment
| Structure (SMILES) | medium | endpoint | result |
| --- | --- | --- | --- |
| CCOC(=O)[C@@H]1CSCC(=O)N[C@@H](CC)C(=O)N(C)[C@@H](C)C(=O)N[C@H](CC(C)C)C(=O)N2CCC[C@@H]2C(=O)N(CC(C)C)CC(=O)N[C@H](CC(C)C)C(=O)N(C)[C@@H](C)C(=O)N[C@@H](CC(C)C)C(=O)N1C | hydrocarbon/water | logD | 1.85 |

Excerpt of the above (study 2):
| Change | ABA EC50 |
| --- | --- |
| T119M | 4.39 µM |
| H55Y | 1.93 µM |
| N77F | 1.21 µM |
| V143I | 185 µM |
